Measured values of several laboratories.
Parts stem from different laboratories: compare values within a part only.

Study 1 — method: protein binding microarray; form: double-stranded DNA, one strand shown; medium: in vitro; tested at: not given; reference: not given; reading: higher = stronger binding
Target: Histone acetyltransferase KAT6A, winged helix 1, GST fusion (KAT6A, Homo sapiens, UniProt Q92794, residues 1-85)
Notes: 8-mer, flanks averaged, mean of 2 arrays, mostly near background
Target sequence (chain): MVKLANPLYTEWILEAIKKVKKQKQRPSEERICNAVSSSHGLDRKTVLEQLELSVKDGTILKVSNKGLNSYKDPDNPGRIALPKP
| Oligonucleotide | E-score |
| --- | --- |
| GCTCTACA | -0.0914 |
| AGAGCGAA | 0.0213 |
| ACATCGGG | 0.112 |
| CAACGTGA | -0.112 |
| ATCCTCTG | -0.288 |
| TTAGGGAA | -0.127 |
| GTTGGGCA | -0.0768 |
| CCGTCCAC | 0.208 |
| ACAGCACC | -0.0551 |
| CACGGAGA | 0.142 |
| ACTGTGTA | -0.0253 |
| CCAGAGTC | -0.14 |
| AGAGCGAG | 0.0134 |
| ATAGGAGC | -0.0255 |
| GCTGGCAC | -0.0737 |
| GCGCAGGA | 0.185 |
| ACTCGATA | -0.0259 |
| AGGTGCAA | -0.204 |
| CGGCGGGC | 0.46 |
| ACCGACAT | 0.0481 |
| GCAATAGC | 0.0256 |

Study 2 — method: RNA Bind-n-Seq; form: RNA; medium: in vitro; tested at: not given; notes: RNA with constant flanks, ends assumed; reference: input RNA pool; reading: higher = stronger binding
Target: RING finger protein unkempt homolog, zinc fingers 1-6, GST-SBP tag (UNK, Homo sapiens, UniProt Q9C0B0, residues 30-357)
Chain of UniProt Q9C0B0 (30-357, looked up): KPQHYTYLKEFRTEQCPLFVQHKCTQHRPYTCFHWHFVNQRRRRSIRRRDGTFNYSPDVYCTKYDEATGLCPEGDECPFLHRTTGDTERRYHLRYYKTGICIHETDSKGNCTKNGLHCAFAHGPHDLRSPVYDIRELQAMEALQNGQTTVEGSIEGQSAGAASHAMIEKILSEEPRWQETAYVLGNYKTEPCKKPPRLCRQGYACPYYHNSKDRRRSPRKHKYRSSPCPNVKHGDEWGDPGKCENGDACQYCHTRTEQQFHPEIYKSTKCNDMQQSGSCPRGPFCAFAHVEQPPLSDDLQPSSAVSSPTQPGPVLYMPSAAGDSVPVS
All sequences stand within: GGGAGUUCUACAGUCCGACGAUC … CAACAGAGGAUUGAGCAUCA
| Oligonucleotide | bound/input enrichment |
| --- | --- |
| AGUCUGGCCGUACCACUGUGGCUGCUGGCAGCGUCCCUGUUCUGCCUUCUCAGCAAAUGUUAACCGAAUAAAAAUUUAAAAAUAAUUACAAAAACACACAAAAAUGCGUCACACAGAUAC | 1.48 ratio |
| AAUUUUAACCAAGAAUCAGAAGGUAGAAAUUCAGGACCAUGGUUGUCUUCUUCACUCCGAAACCGAUGCACACCUUUGUUCUCGAGAAGGAGGCGAGAGGGAAGGGAUGAGUCUUCAAGA | 0.265 ratio |
| AUAAUGUUUGAAUCCUUCAAUGUUCCAGGCUUGUACAUUGCUGUGCAGGCUGUUCUUGCCUCCGCUGCAUCCUGGACCUCAAGACAAGUAGGAGAGCGGACGCUGACGGGUACAGUAAUA | 0.17 ratio |
| CGCUAUUGUGUUUCAACAAGAGACUUGCCCUCCCUGUUGUCUUCCACUGUACAUGCUGUAUACCGGGGUCACGUGAUGCCGCUGAAGACAAGAAUAAACUGGAGUAGAUUAGUUUGCUGU | 0.198 ratio |
| UAAAUAUACAAUACAUCAUACAUACUUUACAAGCAAGUUAAAUGGAGAUAAAGUUGAAAUCACCGAAGAUGCAAAUGACCUUUCAAAAUCAACACAAUGUGUUCUGAAACUUUCGUGACU | 0.114 ratio |
| AGAGUGAAAAUUCUUCGAGAUUAUGCUGGCCUUAUACUUUUCCUAGAAGAGGAUCACUACUCCGCCCCAGACUUUUACCAUGUCUUCAAAAAGAUGUGGAAACUGAAGCAGCAAGAGUGC | 0.161 ratio |
| GACAGGGUCGGGGACAUCCACAUCUUGGAAGUCACGAAUAAUCUAGAACAUAAGACCUCUUUCCGUAUUUCCAAUUUUCUCAACAAGAGCAGGGGGAGUAAUUUCAGUGCAAGUCAGAGC | 0.328 ratio |
| CUUGAUUUCCUACGAAUCAGUGACACAGAAGAGCUUCCAGAAUUUAAGAGUUUUGAGGAACCCGAACCUCCCAAACAUUCAAAAGUCAAACGGCAAAGCAGCACCCCUAGUGCUCCUGAA | 0.268 ratio |
| CCUGCAGUAGGAAGUUUUGGGGUUUUUUGUUUUUGUUUGGUUUUGGUUUUGUUUUUCUUAAACCGUCUCUUAUGGGUAGCUGGAUUCUCUGCCAUUUGUAAUUUUUCCUCUGAUUCCAAU | 1.41 ratio |
| GCUGUGCUGGGUUAACAGCUUCCUUCCCUUUCUGUGUAGCAGUCUUGAAAUGUUCUGUUUAAAUCAGCCGGCUUAAUGUGUUCUGGGUAUUUAUCUCCUUGUAUUUUAAAUAUAUGUAGU | 1.68 ratio |
| CUAGGUUGGCAGUUGACUAGUCAGGAAACCCAUGAGCUACAAAGUUGCUUAAAGCAAAUUAUCCGAAACAUAAAAUUCAAAGCACCUCCAUGUAACACUUUUGUGGAUCUGACUUCUGCA | 0.176 ratio |

Study 3 — method: RNA Bind-n-Seq; form: RNA; medium: in vitro; tested at: 365 nM; reference: no-protein control; reading: higher = stronger binding
Target: RNA binding protein fox-1 homolog 2, RRM domain, GST-SBP tag (RBFOX2, Homo sapiens, UniProt O43251-10, residues 100-194)
Notes: natural RNA segment, single round, ends assumed
All sequences stand within: GGGAGUUCUACAGUCCGACGAUC … UGGAAUUCUCGGGUGCCAA
Residues (chain): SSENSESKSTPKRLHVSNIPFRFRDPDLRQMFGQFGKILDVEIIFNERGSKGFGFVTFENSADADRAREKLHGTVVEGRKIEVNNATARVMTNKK
| Oligonucleotide | RBNS enrichment (R) |
| --- | --- |
| AAGCCUUUCUUCCUUUAUAUCUUCUGACUGAGCUCUCCCUGAUUGACAUCACCUCAUGCGAUGACCUCCCUCAUUCUGUGCUGCCUCAGCACUUAUCUUUUGAGUUUGUA | 0.397 |
| CACACCACACACUUGUUUAGUGAACCAAAUCUAGAAAGUACCAAGGCAGAGGUAUGCUCCUGCUGUAAUCAGGCAAAUGAGUUCAACUGGAUUUCUUUUGACAAUACUGU | 0.339 |
| AUCACUUAUUCAAGGUGGGAUUUUAUGGGGAUUUUUUUCAUUUUUAGCUUUCUGUUAAAUACUUGCAGAAAAAAAAAAUAGCAAGUACAAUAUGACAGUAGUACAACAAC | 0.682 |
| GUGCAUGCUGCUUCCGACACUGGCGCUGAGAUCCCUCCCCGAGGGGCUCUGUCUCUGCCUUGACCUCCUGGGUCAAGUCCCUGACCUCAGGAUACCUGCUGUCCACCCAA | 6.8 |
| AAAAGUAUAGUUUUAUAUUUGAAAUGUAUGCAAAUUAUGGCCAUAUGGCUGAUUGGAAUGUACUACUGUAAUAUAAAAAGUCACUGUAUUUGCAAUAAAUUCUUUUCUAU | 1.31 |
| GCAGGAGGAGGAAGAAGGAAGUGUCCAGUCACAUCCUUAGUUCUCAGAGGACUUUAUUUUCCUCUCUACCUACUCUUUUGGGUGUCACUGUCUCCAGACAGCAGGGCCCU | 0.29 |
| CGUUGUGUGCUCAGUGUUUUCUCAUAGGCACCAGGGACAGGCUUCUCAAGGCAGUAUGAUAUACCCUAGUCUUUGGUGCCUCUAGUAUAUGUGACCAGGUGUCGUCCUGC | 0.482 |
| GUUUACGUCAUUUACACUGCUGCUUUUCUCAUAUUCUGCUUUUAAUUACUUGUAGUAAAUCAUUUGUUUGGGCUUCAAGCACUGUCUUCCAUCUGCAUCUUCCAGAUUUA | 0.826 |
| UGUGUCAUGUUGCUUAUGACCCUAUCUGUGAAGCCGGCUCUGGAGUGACAGAGAGAACCUCAAAAAUGUAGCUGGAAAGGACUUUAAAACUCAUCCAAUGCAGAGUCUCG | 0.493 |
| UGGUUUAUUUUUAGUGCUAUUUUGUUAUAUGAUUGCCAUUGAAAAUAAUAAAAAGAAUGUUGGUUUCAUUCGCCCUUUUUUUUUAAACCUUUUAAAAAAGACAGUAGUGU | 0.434 |
| CUCCAGCCUCCUCCCUAUUGGAAUCCCAAUGGCUCCUGGAGUAGGAAAAAAGUUUAAACUACAUUCAUGUUCUUGUUCUGUGUCACUCGGCCCUGGGUAGUCUACCAUUU | 0.504 |
| ACAGUGCACGUGCAUGAUGGAGCUGUGGGACCCUCUCUGGGCUGGGUCUCAUCUGUAAGCUGCUACAGCCCAGAUGAACUCUGCCAGCCGCCAGUGCAUCCAGUACAGCG | 17.7 |

Study 4 — method: protein-binding microarray; form: double-stranded DNA, one strand shown; medium: in vitro; tested at: 2200 nM top; notes: 60-bp whole probe; added: salmon DNA 0.4 mg/ml; reference: random background probes; reading: higher = stronger binding; all sequences stand within: GCCTAGCAC … GTCTTGATTCGCTTGACGCTGCTG
Target: Interferon regulatory factor 7, full length, phosphomimetic (IRF7, Homo sapiens, UniProt Q92985, residues 1-503, S471D/S472D/S475D/S476D/S477D/S483D/S484D/S487D)
Chain of UniProt Q92985 (whole entry, unmodified, looked up): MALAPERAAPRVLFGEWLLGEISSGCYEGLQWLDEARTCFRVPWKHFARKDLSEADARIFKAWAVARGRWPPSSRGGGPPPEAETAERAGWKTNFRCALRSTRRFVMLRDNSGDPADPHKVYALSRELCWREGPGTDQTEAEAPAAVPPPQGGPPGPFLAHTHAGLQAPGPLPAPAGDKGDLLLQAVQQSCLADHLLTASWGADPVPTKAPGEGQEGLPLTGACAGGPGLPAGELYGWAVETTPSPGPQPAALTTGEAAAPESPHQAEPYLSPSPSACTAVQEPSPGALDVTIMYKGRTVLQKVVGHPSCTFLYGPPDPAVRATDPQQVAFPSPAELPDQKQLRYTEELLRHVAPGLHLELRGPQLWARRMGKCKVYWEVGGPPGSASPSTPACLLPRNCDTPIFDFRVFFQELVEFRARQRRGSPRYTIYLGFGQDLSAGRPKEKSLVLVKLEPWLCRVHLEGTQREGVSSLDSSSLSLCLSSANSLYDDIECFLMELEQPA
| Oligonucleotide | fitted relative affinity |
| --- | --- |
| TCACCTAGCCATTATGAGACTGTGCTA | 0.363 z-score |
| TGAGATTTCAGTTTCGATTAGTGCTAG | 7.48 z-score |
| GACGGTCTCGGACTAGGGACGTGCTAG | -0.432 z-score |
| GACGCTATCGGGACTGGGGACGTGCTA | -0.149 z-score |
| GACGATATCAGGATCGAGACGTGCTAG | 0.191 z-score |
| ACATATATACAGAGATAGATGTGCTAG | 0.0536 z-score |
| TTAGGTATCGGACTGAGTTAGTGCTAG | 0.156 z-score |
| GTATATACACTTATGACTTTGTGCTAG | 0.714 z-score |
| AAGGTTACCCATCTCAAGTAGTGCTAG | 0.379 z-score |
| TTAGATTTCGGGCCTGGATTAGTGCTA | 0.557 z-score |
| GACGATTTCACTTCCGAGACGTGCTAG | 2.76 z-score |
| TTAGGACTTCTTATCCTTTAGTGCTAG | 0.398 z-score |
| GACGATTCCACTTTCGAGACGTGCTAG | 5.86 z-score |
| AACTTTCTCTGCTCTTTTCAAGTGCTA | 1.7 z-score |
| TTCGGTCTCCTACTGCTTTAGTGCTAG | 1.73 z-score |
| TTAGGTTTCGGTTTCGGTCAGTGCTAG | 14.7 z-score |
| GACGGTAGCGACTATCGGGACGTGCTA | -0.622 z-score |
| GACGGACTGGGACTGCGGACGTGCTAG | -0.946 z-score |
| TTAGGTCTCAGTATCGATTAGTGCTAG | 0.369 z-score |
| TCATTTTTTTCTTTTATACTGTGCTAG | 2.97 z-score |
| GACGAACTGAGACTGCAGACGTGCTAG | -0.183 z-score |
| TTAGATCTCAGTCTCGATTCGTGCTAG | 1.31 z-score |
| GTAGGACTGCTTTTCCTTTAGTGCTAG | 1.44 z-score |
| GGAAGCTTCTTTTTTATTCTGTGCTAG | 1.01 z-score |

For quick reference, copied from above (study 1):
| Oligonucleotide | E-score |
| --- | --- |
| ACTCGATA | -0.0259 |
| ATCCTCTG | -0.288 |
| CAACGTGA | -0.112 |
| CGGCGGGC | 0.46 |
| CACGGAGA | 0.142 |
| GCTCTACA | -0.0914 |
| GCAATAGC | 0.0256 |
| CCGTCCAC | 0.208 |
| CCAGAGTC | -0.14 |
| ACCGACAT | 0.0481 |
